Published values collected from several papers.
Lines come from different studies, so protocols differ. Values joined by “and” are separate records of one study, mostly repeats; a detail may differ.
Target: Cytoplasmic tyrosine-protein kinase BMX (BMX, Homo sapiens, UniProt P51813)

With `COc1cc(Nc2nc(C)cc(-c3cnn4nc(OC)ccc34)n2)cc(C(F)(F)F)c1` the remaining activity was 87% (inhibitor; 1 µM; relative to: control).
With `COc1c(OCCCN2CCOCC2)ccc2c1N=C(NC(=O)c1cnc(N)nc1)N1CCN=C21` the remaining activity was 85% (kinase activity, inhibitor; 1 µM; relative to: untreated control).
The inhibition of `CN1CCN(Cc2ccc(-c3ccc(CO[C@H]4CCC[C@@H]4NC(=O)c4cc(-c5cnn(C)c5)cnc4N)cc3)cc2)CC1` is reported as 4% (enzyme activity, inhibitor; 0.1 µM).
`COc1c(Cl)cccc1Nc1c(-c2ccncc2C#C[C@@]2(C)CCCN2C(=O)/C=C/CN(C)C)[nH]c2c1C(=O)NCC2` gave a remaining binding of 100% (binding, competition with immobilised ligand; 3 µM).
`CCN1CCN(Cc2ccc(NC(=O)c3ccc(C)c(NC(=O)c4cncc(-c5cccs5)c4)c3)cc2C(F)(F)F)CC1` has a remaining binding of 0.35% (binding, competition with immobilised ligand; 1 µM).
`Cc1cccc(O[C@H]2CCC[C@@H](C(C)CNCc3ccncc3)C2)c1` (relative stereo) has an inhibition of 2% (enzyme activity, inhibitor; 1 µM).
With `NC(=O)C[C@H]1CCc2sc3ncnc(O[C@H]4CC[C@H](N5CCOCC5)CC4)c3c21` the inhibition was 2% (enzyme activity, inhibitor; 10 µM).
With `COc1ccc(O)cc1-c1c[nH]c2ncc(-c3cncc(C(=O)N(C)C)c3)cc12` the inhibition was -2.41% (binding, competition with immobilised ligand; 0.2 µM).
`CNC(=O)C1CCN(c2cc(C)c(F)cc2NC(=O)c2ccc(-c3cc(O)ccc3C)c(C)c2)CC1` has a remaining binding of 72% (binding, competition with immobilised ligand; 1 µM).
Under “activity vs control”, `CNC(=O)C[C@H](Cc1ccc(C#N)cc1)NC(=O)c1cc(-c2ccc(CN[C@H](C)c3ccc(C)cc3)o2)ccc1Cl` is recorded as 92% (enzyme activity, inhibitor; 1 µM).
`Nc1ncc2c(n1)-c1c([nH]c3ccc(C4=CCOCC4)cc13)CCC2` gave a remaining binding of 100% (binding, competition with immobilised ligand; 1 µM).
The remaining activity of `O=C=[N][Ru-4]123([n]4c5ccc(O)cc5c5c6c(c7cc(F)c[n+]1c7c54)C(=O)NC6=O)[S+]1CC[S+]2CC[S+]3CC1` (stereo not drawn) is reported as 124% (enzyme activity; 100 nM, human enzyme, together with: 10 µM ATP; relative to: untreated).
With `C=CC(=O)Nc1cccc(-c2cnc3[nH]cc(C(=O)NC(C)(C)C)c3n2)c1` the inhibition was 68% (enzyme activity, inhibitor; 0.1 µM).
`Cc1ccc(-c2c(/C=C(\C#N)C(=O)NC(C)C)n(CCCO)c3ncnc(N)c23)cc1` gave a remaining binding of 100% (cell-free assay, competition with immobilised ligand; 1 µM).
`COCC12C(=O)NC3C4(C(OC)CC1O)C1CC5(O)C(OC)C(O)C(OC(C)=O)(C1C5OC(=O)c1ccccc1)C3(O)C(OC)C24` (stereo not drawn) gave a remaining activity of 97% and 90% (kinase activity, inhibitor, ProQinase kinase profiling; 25 µM; relative to: control).

Some of these lines once more:
`COc1c(Cl)cccc1Nc1c(-c2ccncc2C#C[C@@]2(C)CCCN2C(=O)/C=C/CN(C)C)[nH]c2c1C(=O)NCC2` gave a remaining binding of 100% (binding, competition with immobilised ligand; 3 µM).
`CCN1CCN(Cc2ccc(NC(=O)c3ccc(C)c(NC(=O)c4cncc(-c5cccs5)c4)c3)cc2C(F)(F)F)CC1` has a remaining binding of 0.35% (binding, competition with immobilised ligand; 1 µM).
`Cc1cccc(O[C@H]2CCC[C@@H](C(C)CNCc3ccncc3)C2)c1` (relative stereo) has an inhibition of 2% (enzyme activity, inhibitor; 1 µM).
